Assay results from different studies.
Each numbered part is a random draw from the data of one study; scales do not carry over between parts. Substitutions count along the parent as printed.

Study 1
Target: Sal-like protein 4, full length isoform A (SALL4, Homo sapiens, UniProt Q9UJQ4, residues 1-1053)
UniProt Q9UJQ4, sequence (whole entry, looked up): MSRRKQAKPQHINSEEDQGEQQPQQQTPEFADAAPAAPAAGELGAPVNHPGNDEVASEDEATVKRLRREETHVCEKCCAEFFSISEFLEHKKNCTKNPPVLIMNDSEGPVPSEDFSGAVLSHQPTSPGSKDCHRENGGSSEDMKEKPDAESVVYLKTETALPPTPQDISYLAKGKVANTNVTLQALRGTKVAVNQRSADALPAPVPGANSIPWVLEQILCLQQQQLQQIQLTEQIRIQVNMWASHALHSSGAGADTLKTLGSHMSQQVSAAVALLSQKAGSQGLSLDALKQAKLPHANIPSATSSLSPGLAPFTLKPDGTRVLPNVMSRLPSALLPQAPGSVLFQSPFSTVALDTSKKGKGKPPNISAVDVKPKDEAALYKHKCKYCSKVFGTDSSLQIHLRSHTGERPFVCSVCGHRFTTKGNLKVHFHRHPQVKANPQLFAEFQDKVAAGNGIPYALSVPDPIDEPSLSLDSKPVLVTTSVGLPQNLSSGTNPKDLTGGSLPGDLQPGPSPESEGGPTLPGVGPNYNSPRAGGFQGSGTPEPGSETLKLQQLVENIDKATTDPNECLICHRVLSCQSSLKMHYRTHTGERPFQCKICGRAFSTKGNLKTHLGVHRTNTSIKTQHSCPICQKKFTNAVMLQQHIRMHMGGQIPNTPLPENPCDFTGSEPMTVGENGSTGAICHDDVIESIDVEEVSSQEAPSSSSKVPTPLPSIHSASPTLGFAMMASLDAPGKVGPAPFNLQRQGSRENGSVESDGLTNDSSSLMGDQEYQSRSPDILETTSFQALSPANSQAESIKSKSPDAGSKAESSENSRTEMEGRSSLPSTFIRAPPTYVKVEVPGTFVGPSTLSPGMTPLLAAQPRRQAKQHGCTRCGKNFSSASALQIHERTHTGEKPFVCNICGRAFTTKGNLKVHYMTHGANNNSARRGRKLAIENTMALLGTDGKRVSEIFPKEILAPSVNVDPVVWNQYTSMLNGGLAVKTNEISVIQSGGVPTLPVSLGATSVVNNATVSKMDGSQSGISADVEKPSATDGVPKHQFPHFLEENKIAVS
Technique: universal PBM
Form: double-stranded DNA, one strand shown
Matrix: in vitro
Concentration: 600 nM
Setting: 8-mer, flanks averaged, mean of replicates
Reading: higher = stronger binding
Measurement: E-score
Oligonucleotide = CATAATGA; value = 0.302
Oligonucleotide = CAAGGTTC; value = -0.11
Oligonucleotide = ATTCTCCC; value = -0.081
Oligonucleotide = CCCGCGGA; value = -0.284
Oligonucleotide = CAGCCGAC; value = -0.283
Oligonucleotide = CACTAACA; value = 0.107
Oligonucleotide = AAAGTTGG; value = 0.0793
Oligonucleotide = GCCAGTAC; value = -0.079
Oligonucleotide = ATTGCACG; value = 0.0353
Oligonucleotide = ACTTTCAC; value = 0.209
Oligonucleotide = GCGGCGAC; value = -0.211
Oligonucleotide = GCGATCCA; value = -0.23
Oligonucleotide = CTTTTGTA; value = 0.221
Oligonucleotide = ATAAAGCA; value = 0.238
Oligonucleotide = AACGGCTG; value = -0.167
Oligonucleotide = ATTCAATG; value = 0.201
Oligonucleotide = AGGGTAGC; value = -0.136
Oligonucleotide = CGTCGTAC; value = -0.00473
Oligonucleotide = AGACTTAC; value = 0.0832

Study 2
Target: CCNE2, cyclin fold, Cln2 fusion (human)
Technique: yeast growth competition, sequencing
Matrix: yeast
Setting: weak parent motif
Baseline: not given
Reading: higher = stronger binding
Measurement: normalised enrichment score
Parent: SAMHD1 docking peptide (human); ASKSRVQLFKDDP; partner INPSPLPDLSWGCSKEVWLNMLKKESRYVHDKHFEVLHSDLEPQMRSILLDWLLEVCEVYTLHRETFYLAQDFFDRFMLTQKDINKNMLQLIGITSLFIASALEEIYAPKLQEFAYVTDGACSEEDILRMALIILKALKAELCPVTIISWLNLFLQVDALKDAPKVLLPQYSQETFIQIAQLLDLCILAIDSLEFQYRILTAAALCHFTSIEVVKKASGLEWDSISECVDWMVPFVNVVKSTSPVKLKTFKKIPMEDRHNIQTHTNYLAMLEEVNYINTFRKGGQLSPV
Change = ASKSRVQLFKDNP [D12N]; value = 0.472
Change = ASKSRVQIFKDDP [L8I]; value = 0.196
Change = ASMSRVQLFKDDP [K3M]; value = 0.151
Change = ASKSRVQHFKDDP [L8H]; value = -0.395
Change = ASKSRVQLDKDDP [F9D]; value = 0.225
Change = ASKARVQLFKDDP [S4A]; value = 0.752
Change = ASKSRVQLFKCDP [D11C]; value = 0.334
Change = ASKSRVMLFKDDP [Q7M]; value = -0.227
Change = ASKSRWQLFKDDP [V6W]; value = 0.0742
Change = ASKSRVQLTKDDP [F9T]; value = 0.0983
Change = ASKSCVQLFKDDP [R5C]; value = 0.2
Change = ASKSIVQLFKDDP [R5I]; value = 0.229
Change = AVKSRVQLFKDDP [S2V]; value = 0.353
Change = AKKSRVQLFKDDP [S2K]; value = -0.402
Change = ASKSRVQRFKDDP [L8R]; value = -0.35

Study 3
Target: RNA binding protein fox-1 homolog 2, RRM domain, GST-SBP tag (RBFOX2, Homo sapiens, UniProt O43251-10, residues 100-194)
Technique: RNA Bind-n-Seq
Form: RNA
Matrix: in vitro
Concentration: 365 nM
Setting: natural RNA segment, single round, ends assumed
Baseline: no-protein control
Reading: higher = stronger binding
Measurement: RBNS enrichment (R)
Construct (chain): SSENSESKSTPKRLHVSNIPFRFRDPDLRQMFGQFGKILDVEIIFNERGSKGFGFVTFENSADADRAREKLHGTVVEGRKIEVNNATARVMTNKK
Oligonucleotide = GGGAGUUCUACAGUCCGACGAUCCACGGAGAGAAGGCCCAUACCUUCUGGUUGCUUCAGACCUGACACCGUCCCUCAGUGAUACGUACAGCCAAAAAGGACCAACUGGCUUCUGUGCACUAGCCUGUGAUUAAUGGAAUUCUCGGGUGCCAA; value = 0.61
Oligonucleotide = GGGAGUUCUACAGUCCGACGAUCCACAGACACACUGUGUCUUGUGUCUUGUGAGUCCAGCACCUGGUCCCACCCUCAGUCCCCAUGUUAGUCUUGGUUGUGCCUGUCUUUAACCACAGCCUCACAGCUGGUCUUGGAAUUCUCGGGUGCCAA; value = 0.779
Oligonucleotide = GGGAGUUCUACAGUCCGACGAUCACUGCCAUCUUUCUUUUGUGACUUUCUUCCUUAAGCAACAGUAAACUUGCAGCAGAUCUGGUUUUUUUUUUUUUUCCUUGCCAAGACAUCGCCAGCCCUGUAGAAGGCUCUGGAAUUCUCGGGUGCCAA; value = 0.815
Oligonucleotide = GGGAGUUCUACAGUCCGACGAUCUUUAAGUGUAUACUUUAGCAGGUGUGUACUAAUUACCAGUAACUUCAACACAAGCAAAGCAGGUUACAUGGUAAUGUUCAUUCAGUAUAUUUCUUGUUUGUGAAAUUGAAUGGAAUUCUCGGGUGCCAA; value = 0.526
Oligonucleotide = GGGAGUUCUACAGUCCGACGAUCGAGUGCAGUGAGUGAGAGUCCUUGGGAGCGCGGCGCUGCCUGUAGCUGUGCCUGGGGAUGCACGUGGCCACGGGAUUUCAGUGGGACAGCGCUCCCACAGGGGCUGGGGGUGGAAUUCUCGGGUGCCAA; value = 3.44
Oligonucleotide = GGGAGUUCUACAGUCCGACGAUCGGCCUGGGUGGGGACAUGCCUUGAGUGUGCUGGAAUGUGGGUGGAGCCUGCUUCUGGGCCACCCCUCCUGGUUCAGGGCUGUGCUCACAGCAGAUUCUUGCAGUAUCAAGUGGAAUUCUCGGGUGCCAA; value = 0.434
Oligonucleotide = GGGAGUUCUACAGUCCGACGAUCCUCUUUUAUAUCUAUUGACAAAGGUGUGGGGUCUGGCAAAUGAAGUGUGCUGUUCUCAGCCUAAGAUGCAGCAGCAGCUCUUCCCACACACGCCCCCAGGUCUCCAGGGUUGGAAUUCUCGGGUGCCAA; value = 0.343
Oligonucleotide = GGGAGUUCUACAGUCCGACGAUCGAGCCUCUUCAUGCUCUAGUCACUGCCAAUACGAUGGAGAAUGUCAAAAAGGCAGUAGAACAGGUCAGAAACAUCCUGAAGCAGGGUAUUGAGACCCCAGAGGACCAGAAUGGAAUUCUCGGGUGCCAA; value = 0.429

Mixed results
Molecule = PhoQ, residues 284 288 289 292 302 303 NLMGRA; target = PhoP, residues 12 14 15 18 19 TPLRH (Escherichia coli, UniProt P23836); assay = Sort-seq, item: YFP reporter; system = E. coli; conditions = PhoQ-PhoP variant library, together with: 10 µM Mg2+; how to read = baseline: high Mg2+ state, higher = stronger signaling; measurement = fold induction; value = 1.27
